Results from different studies.
Every numbered part comes from another study and shows a few of its results, in no order. “And” joins repeats or separate records; there may be more than shown.
Sequence of UniProt P21397 (whole entry, looked up): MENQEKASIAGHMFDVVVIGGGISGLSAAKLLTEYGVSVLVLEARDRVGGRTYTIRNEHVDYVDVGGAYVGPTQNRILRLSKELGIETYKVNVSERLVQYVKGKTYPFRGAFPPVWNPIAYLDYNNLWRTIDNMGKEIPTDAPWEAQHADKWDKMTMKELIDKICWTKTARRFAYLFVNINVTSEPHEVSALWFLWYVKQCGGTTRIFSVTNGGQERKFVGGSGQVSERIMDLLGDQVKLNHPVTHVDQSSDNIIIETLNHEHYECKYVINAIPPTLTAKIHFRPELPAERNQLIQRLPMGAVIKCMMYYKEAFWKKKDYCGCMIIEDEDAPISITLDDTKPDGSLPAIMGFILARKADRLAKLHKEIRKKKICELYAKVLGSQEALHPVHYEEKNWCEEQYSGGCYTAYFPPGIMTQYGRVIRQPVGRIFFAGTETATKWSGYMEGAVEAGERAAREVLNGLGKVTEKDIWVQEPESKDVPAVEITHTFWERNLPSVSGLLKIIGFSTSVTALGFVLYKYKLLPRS
Sequence of UniProt P05164 (whole entry, looked up): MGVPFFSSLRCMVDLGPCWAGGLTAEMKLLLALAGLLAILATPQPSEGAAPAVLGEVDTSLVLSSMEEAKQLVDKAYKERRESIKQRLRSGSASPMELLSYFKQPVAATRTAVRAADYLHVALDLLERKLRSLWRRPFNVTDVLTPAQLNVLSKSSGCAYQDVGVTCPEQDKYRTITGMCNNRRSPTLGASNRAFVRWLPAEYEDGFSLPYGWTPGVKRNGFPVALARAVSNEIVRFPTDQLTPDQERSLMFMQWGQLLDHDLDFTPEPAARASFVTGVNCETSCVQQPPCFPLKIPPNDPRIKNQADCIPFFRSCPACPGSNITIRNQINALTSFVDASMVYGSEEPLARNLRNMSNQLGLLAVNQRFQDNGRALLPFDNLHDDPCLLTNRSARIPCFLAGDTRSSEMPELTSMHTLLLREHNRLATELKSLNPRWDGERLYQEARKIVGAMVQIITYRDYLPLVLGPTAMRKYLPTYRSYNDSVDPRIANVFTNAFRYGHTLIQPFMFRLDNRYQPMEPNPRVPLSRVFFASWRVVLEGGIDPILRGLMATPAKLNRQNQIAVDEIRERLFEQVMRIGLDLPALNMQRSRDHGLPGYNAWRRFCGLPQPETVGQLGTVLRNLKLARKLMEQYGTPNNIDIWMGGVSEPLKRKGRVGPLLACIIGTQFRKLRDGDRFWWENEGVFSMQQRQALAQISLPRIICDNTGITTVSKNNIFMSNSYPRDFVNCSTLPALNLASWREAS
Sequence of UniProt Q9Y4K4 (whole entry, looked up): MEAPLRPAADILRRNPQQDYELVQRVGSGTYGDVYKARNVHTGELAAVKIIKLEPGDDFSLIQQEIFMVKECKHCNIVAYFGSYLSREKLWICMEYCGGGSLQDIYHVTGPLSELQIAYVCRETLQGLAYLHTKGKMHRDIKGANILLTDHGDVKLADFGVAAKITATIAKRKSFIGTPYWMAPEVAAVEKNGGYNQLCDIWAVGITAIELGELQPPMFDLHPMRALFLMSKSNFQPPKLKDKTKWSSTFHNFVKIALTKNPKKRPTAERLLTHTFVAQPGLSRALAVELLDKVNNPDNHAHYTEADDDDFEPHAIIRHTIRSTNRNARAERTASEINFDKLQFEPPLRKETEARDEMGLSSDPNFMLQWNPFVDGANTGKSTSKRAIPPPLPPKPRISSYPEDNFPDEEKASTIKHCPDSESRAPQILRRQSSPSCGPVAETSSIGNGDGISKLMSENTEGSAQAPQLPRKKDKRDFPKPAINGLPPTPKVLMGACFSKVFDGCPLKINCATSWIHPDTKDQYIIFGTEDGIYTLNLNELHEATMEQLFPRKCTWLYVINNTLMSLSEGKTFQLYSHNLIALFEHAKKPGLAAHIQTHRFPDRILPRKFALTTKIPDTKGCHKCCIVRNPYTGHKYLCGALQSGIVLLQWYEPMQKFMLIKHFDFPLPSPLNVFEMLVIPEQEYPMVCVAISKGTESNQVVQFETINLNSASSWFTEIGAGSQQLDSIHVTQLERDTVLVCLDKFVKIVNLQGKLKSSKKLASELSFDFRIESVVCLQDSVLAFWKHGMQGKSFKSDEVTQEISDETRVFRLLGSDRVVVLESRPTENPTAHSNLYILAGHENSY
Sequence of UniProt P46734 (whole entry, looked up): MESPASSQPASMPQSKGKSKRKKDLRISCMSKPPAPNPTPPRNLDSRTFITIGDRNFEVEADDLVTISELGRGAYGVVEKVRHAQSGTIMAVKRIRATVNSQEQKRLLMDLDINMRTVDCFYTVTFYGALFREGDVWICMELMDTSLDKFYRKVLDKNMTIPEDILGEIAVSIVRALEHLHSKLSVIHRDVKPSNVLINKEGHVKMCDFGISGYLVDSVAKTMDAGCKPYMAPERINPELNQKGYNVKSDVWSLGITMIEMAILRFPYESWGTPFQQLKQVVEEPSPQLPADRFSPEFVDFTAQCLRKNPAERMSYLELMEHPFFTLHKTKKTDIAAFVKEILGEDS

Set 1 — technique: NanoBRET; concentration: 1 µM
SMILES: COc1cc(-c2nc3ccc(C(=O)NCCCN(C)C)cc3n2C2CCC2)cc(OC)c1OC
target | target occupancy [%]
MET (Homo sapiens, UniProt P08581) | 8.88
Aurora kinase A (AURKA, Homo sapiens, UniProt O14965) | 1
DCLK3 (Homo sapiens, UniProt Q9C098) | 5.88
AAK1 (Homo sapiens, UniProt Q2M2I8) | 3.46
MAP4K5 (Homo sapiens, UniProt Q9Y4K4) | -0.21
TNK2 (Homo sapiens, UniProt Q07912) | -1.11
MUSK (Homo sapiens, UniProt O15146) | 4.21
EPHA7 (Homo sapiens, UniProt Q15375) | -6.69
NTRK2 (Homo sapiens, UniProt Q16620) | -2.69
NUAK1 (Homo sapiens, UniProt O60285) | 1
ITK (Homo sapiens, UniProt Q08881) | -2.51
MAST3 (Homo sapiens, UniProt O60307) | -0.76
Cyclin-dependent kinase 16, with cyclin Y (CDK16, Homo sapiens, UniProt Q00536) | -1.72
TLK2 (Homo sapiens, UniProt Q86UE8) | -0.81
MKNK2 (Homo sapiens, UniProt Q9HBH9) | 3.83
FGFR1 (Homo sapiens, UniProt P11362) | -4.3
CDKL5 (Homo sapiens, UniProt O76039) | -11.4
MAP4K1 (Homo sapiens, UniProt Q92918) | 0.46
Cyclin-dependent kinase 2, with cyclin E1 (CDK2, Homo sapiens, UniProt P24941) | 0.67
STK17B (Homo sapiens, UniProt O94768) | 4.23
MERTK (Homo sapiens, UniProt Q12866) | 1.02
WEE1 (Homo sapiens, UniProt P30291) | 1.03
LATS2 (Homo sapiens, UniProt Q9NRM7) | -0.96
LRRK2 (Homo sapiens, UniProt Q5S007) | 3.22
Cyclin-dependent kinase 15, with cyclin Y (CDK15, Homo sapiens, UniProt Q96Q40) | 0.95

Set 2 — action: degrader; technique: automated immunoblot (Jess); reference: GAPDH
Compound: Cc1ccc(O)c(C)c1-c1cnc2[nH]c(-c3cnc(N4CCC(CCN5CCN(c6ccc(N7CCC(=O)NC7=O)cc6F)CC5)CC4)nc3)cc2c1C#N
Target: Membrane-associated tyrosine- and threonine-specific cdc2-inhibitory kinase (PKMYT1, Homo sapiens, UniProt Q99640)
Sequence of UniProt Q99640 (whole entry, looked up): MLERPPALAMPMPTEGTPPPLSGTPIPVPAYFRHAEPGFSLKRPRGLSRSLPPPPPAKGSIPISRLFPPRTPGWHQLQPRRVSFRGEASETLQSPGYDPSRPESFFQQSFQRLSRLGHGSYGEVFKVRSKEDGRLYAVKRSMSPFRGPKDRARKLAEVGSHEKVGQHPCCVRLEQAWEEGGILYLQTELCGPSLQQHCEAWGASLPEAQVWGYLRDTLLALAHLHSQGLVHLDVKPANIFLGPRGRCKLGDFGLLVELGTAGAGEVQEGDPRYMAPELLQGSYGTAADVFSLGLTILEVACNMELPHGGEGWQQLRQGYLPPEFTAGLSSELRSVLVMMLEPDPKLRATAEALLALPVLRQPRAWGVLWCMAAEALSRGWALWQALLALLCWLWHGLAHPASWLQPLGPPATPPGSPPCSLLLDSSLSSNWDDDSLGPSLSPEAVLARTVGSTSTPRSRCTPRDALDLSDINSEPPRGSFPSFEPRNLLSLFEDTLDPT
setting | protein level
1 nM | 67%
1000 nM | 68.1%
10 nM | 95%
100 nM | 90.2%
0.1 nM | 64%
0.01 nM | 90.7%

Set 3 — observed: kinase activity; action: inhibitor; technique: ADP-Glo; concentration: 2 µM
Target: Cyclin-dependent kinase 12, with cyclin K (CDK12, Homo sapiens, UniProt Q9NYV4)
Sequence of UniProt Q9NYV4 (whole entry, looked up): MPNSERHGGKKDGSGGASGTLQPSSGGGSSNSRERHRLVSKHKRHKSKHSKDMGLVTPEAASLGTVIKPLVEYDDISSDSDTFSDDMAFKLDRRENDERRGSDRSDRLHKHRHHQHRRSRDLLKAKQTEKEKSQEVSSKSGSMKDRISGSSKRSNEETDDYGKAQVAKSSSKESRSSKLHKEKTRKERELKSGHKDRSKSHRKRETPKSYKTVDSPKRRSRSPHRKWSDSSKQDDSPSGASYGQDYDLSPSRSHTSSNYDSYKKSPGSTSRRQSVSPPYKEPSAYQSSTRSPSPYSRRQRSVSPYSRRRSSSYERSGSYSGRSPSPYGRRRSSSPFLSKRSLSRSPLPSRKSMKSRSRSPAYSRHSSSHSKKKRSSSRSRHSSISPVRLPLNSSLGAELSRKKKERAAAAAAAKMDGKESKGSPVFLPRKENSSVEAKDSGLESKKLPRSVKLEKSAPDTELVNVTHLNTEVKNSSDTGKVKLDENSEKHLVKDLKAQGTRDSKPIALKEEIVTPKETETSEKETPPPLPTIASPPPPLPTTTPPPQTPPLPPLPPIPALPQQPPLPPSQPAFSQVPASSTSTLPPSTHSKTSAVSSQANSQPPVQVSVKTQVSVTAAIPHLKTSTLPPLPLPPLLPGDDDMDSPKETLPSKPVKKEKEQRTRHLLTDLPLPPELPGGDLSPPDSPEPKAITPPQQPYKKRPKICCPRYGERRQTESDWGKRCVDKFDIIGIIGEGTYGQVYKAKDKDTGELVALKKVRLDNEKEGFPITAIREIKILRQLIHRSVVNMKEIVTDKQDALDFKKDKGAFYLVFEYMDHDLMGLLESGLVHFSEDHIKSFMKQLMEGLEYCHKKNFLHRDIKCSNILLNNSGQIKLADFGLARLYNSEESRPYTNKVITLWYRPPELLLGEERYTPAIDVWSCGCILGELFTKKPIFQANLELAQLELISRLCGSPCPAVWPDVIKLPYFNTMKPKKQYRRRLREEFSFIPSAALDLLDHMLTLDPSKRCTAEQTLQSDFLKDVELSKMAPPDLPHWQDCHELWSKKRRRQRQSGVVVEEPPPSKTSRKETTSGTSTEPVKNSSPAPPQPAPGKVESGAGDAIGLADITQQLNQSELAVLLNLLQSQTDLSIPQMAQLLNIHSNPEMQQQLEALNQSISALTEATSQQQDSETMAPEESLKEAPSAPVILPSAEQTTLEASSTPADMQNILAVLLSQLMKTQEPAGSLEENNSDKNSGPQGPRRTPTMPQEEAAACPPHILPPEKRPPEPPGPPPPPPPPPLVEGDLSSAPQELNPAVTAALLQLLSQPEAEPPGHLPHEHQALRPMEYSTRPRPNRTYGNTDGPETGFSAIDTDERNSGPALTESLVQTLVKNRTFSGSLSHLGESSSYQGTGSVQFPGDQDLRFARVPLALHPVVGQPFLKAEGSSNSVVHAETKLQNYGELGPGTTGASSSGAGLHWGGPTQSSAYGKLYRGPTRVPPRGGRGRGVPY
SMILES | inhibition [%]
CCCCOc1nc(NCc2nc3cc(Cl)c(Cl)cc3[nH]2)c2ncn(CC)c2n1 | 76.9
CCn1cnc2c(NCc3nc4cc(Cl)c(Cl)cc4[nH]3)nc(N3CCN(C(C)=O)CC3)nc21 | 91.3
CCn1cnc2c(NCc3nc4cc(Cl)c(Cl)cc4[nH]3)nc(N3CCN(c4ccccn4)CC3)nc21 | 66.6
CCn1cnc2c(NCc3nc4cc(Cl)c(Cl)cc4[nH]3)nc(N3CCN(C(=O)[C@H](C)NC(C)=O)CC3)nc21 | 83.3
CCn1cnc2c(NCc3nc4cc(Cl)c(Cl)cc4[nH]3)nc(N3CCN(C(=O)c4cccnc4)CC3)nc21 | 88.4
CCn1cnc2c(NCc3nc4cc(Cl)c(Cl)cc4[nH]3)nc(N3CCN(C(=O)CNC(C)=O)CC3)nc21 | 90.2
CCn1cnc2c(NCc3nc4ccc(F)c(F)c4[nH]3)nc(N3CCn4ncnc4C3)nc21 | 87.1
CC(=O)N1CCN(c2nc(NCc3nc4cc(Cl)c(Cl)cc4[nH]3)c3ncn(C)c3n2)CC1 | 67.8
CCn1cnc2c(NCc3nc4cc(Cl)c(Cl)cc4[nH]3)nc(N3CCN(C(=O)c4ccccc4)CC3)nc21 | 91.4
CCn1cnc2c(NCc3nc4cc(Cl)c(Cl)cc4[nH]3)nc(N3CCC(NC(C)=O)CC3)nc21 | 87.6

Set 4 — observed: binding; action: competitor; technique: NanoBRET; cell line: HEK293
SMILES: CN1CCC[C@H]1COc1nc2c(c(N3CCN(C(=O)C(F)(F)F)[C@@H](CC#N)C3)n1)CCN(c1cccc3cccc(Cl)c13)C2
KRAS Q61H: GTPase KRas (KRAS, Homo sapiens, UniProt P01116, Q61H)
target | setting | normalized BRET
GTPase KRas (KRAS, Homo sapiens, UniProt P01116, G13D) | 33.3 µM | 19% and 9.32% and 25.5% and 12.7%
KRAS Q61H | 15.2 nM | 88.9% and 102% and 96.2% and 97.4%
GTPase KRas (KRAS, Homo sapiens, UniProt P01116, G12D) | 5.08 nM | 109% and 98.9% and 100%
KRAS Q61H | 137 nM | 86.3% and 91.1% and 96.4% and 95.4%
KRAS Q61H | 1.69 nM | 101% and 96.8% and 98.7% and 91.1%

Set 5 — concentration: 1 µM
SMILES: CC[C@@]1(c2cccc(-c3c(F)cncc3OC)c2)C2=C(Nc3n[nH]cc31)[C@H](F)C(C)(C)CC2=O (single isomer, unassigned)
target | test | scale | remaining binding [%]
Tyrosine-protein kinase ABL1, phosphorylated (ABL1, Homo sapiens, UniProt P00519, M351T) | binding, competition with immobilised ligand | – | 73
MAP2K3 (Homo sapiens, UniProt P46734) | binding, competition with immobilised ligand | – | 87
CAMK2G (Homo sapiens, UniProt Q13555) | binding, competition with immobilised ligand | – | 87
KIT (Homo sapiens, UniProt P10721, V559D/V654A) | kinase binding, KINOMEscan | reference: DMSO control | 89
CSNK1A1L (Homo sapiens, UniProt Q8N752) | kinase binding, KINOMEscan | reference: DMSO control | 74
PDPK1 (Homo sapiens, UniProt O15530) | kinase binding, KINOMEscan | reference: DMSO control | 77
TTK (Homo sapiens, UniProt P33981) | kinase binding, KINOMEscan | reference: DMSO control | 80
ACVRL1 (Homo sapiens, UniProt P37023) | binding, competition with immobilised ligand | – | 94
Ribosomal protein S6 kinase alpha-1, C-terminal kinase domain (RPS6KA1, Homo sapiens, UniProt Q15418) | binding, competition with immobilised ligand | – | 100
MAP4K5 (Homo sapiens, UniProt Q9Y4K4) | binding, competition with immobilised ligand | – | 72
TNK1 (Homo sapiens, UniProt Q13470) | kinase binding, KINOMEscan | reference: DMSO control | 100
PLK2 (Homo sapiens, UniProt Q9NYY3) | kinase binding, KINOMEscan | reference: DMSO control | 60
DYRK1A (Homo sapiens, UniProt Q13627) | kinase binding, KINOMEscan | reference: DMSO control | 64

Set 6 — Compound: CS(=O)(=O)c1ccc(OC/C(=C/F)CN)cc1.Cl
MAOB: Amine oxidase [flavin-containing] B (MAOB, Homo sapiens, UniProt P27338)
Sequence of UniProt P27338 (whole entry, looked up): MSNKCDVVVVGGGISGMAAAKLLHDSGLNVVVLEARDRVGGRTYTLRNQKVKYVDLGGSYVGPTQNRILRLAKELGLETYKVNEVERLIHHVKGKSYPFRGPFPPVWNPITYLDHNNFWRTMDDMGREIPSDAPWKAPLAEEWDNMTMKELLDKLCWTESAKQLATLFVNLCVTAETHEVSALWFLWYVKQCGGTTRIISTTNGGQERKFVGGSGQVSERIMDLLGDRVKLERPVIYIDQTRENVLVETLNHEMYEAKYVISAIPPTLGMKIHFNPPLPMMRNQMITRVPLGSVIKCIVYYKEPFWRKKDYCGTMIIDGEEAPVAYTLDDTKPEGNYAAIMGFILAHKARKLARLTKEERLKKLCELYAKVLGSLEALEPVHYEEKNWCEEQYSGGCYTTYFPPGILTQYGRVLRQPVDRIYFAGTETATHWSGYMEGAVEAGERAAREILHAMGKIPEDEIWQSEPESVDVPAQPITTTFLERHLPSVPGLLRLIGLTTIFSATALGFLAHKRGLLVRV
target | test | system | setting | inhibition
Amine oxidase [copper-containing] 3 (Mus musculus, UniProt O70423) | – | mouse adipose tissue | 0.037 µM | 96.9%
MAOB | enzyme activity, inhibitor | – | 3.333 µM | 6.89% and -0.714%
MAOB | enzyme activity, inhibitor | – | 500 pM | 2.61% and 4.56% and -0.72%
Amine oxidase [copper-containing] 3 (Rattus norvegicus, UniProt O08590) | – | rat adipose tissue | 0.0041 µM | 71.7%
MAOB | enzyme activity, inhibitor | – | 1.5 nM | 5.57% and 3.74% and -1.72%
MAOB | enzyme activity, inhibitor | – | 15.2 nM | -2.38% and -6.16% and -1.73%
MAOA (Homo sapiens, UniProt P21397) | enzyme activity, inhibitor | – | 41.2 nM | -0.917% and 2.05% and 7.97% and -1.74% and -0.905%
Myeloperoxidase (MPO, Homo sapiens, UniProt P05164) | enzyme activity, inhibitor, fluorescence | – | 30 µM | 0.133% and -5.1% and -9.45%

Set 7 — observed: thermal unfolding; technique: differential scanning fluorimetry; concentration: 5.5 µM; direction: higher = more unfolded
Structure (SMILES): C[C@@H]1CN(c2ccc(-c3cc(C(=O)NCCOCCOCCOCCOCCNC(=O)/C=C/c4[nH]cc(C(=O)N[C@@H](CC(N)=O)c5ccc(F)c(Cl)c5)c4-c4ccc(Cl)cc4F)ccc3F)cc2NC(=O)c2c[nH]c(=O)cc2C(F)(F)F)C[C@H](C)N1C
WDR5: WD repeat-containing protein 5 (WDR5, Homo sapiens, UniProt P61964)
DCAF1: DDB1- and CUL4-associated factor 1 (DCAF1, Homo sapiens, UniProt Q9Y4B6)
target | setting | SYPRO Orange fluorescence
WDR5 | 37 °C | 13600 a.u.
WDR5 | 85.41 °C | 52700 a.u.
WDR5 | 69.01 °C | 15100 a.u.
WDR5 | 60.41 °C | 15500 a.u.
WDR5 | 73.01 °C | 21200 a.u.
WDR5 | 37.2 °C | 13700 a.u.
WDR5 | 46 °C | 15500 a.u.
WDR5 | 73.61 °C | 22500 a.u.
WDR5 | 37.8 °C | 13900 a.u.
DCAF1 | 27.8 °C | 8970 a.u.
DCAF1 | 63.41 °C | 55200 a.u.

Further values, each from its own experiment
SMILES | tested on | test | system | setting | endpoint | value
Cc1ncsc1-c1ccc(C(CO)NC(=O)C2CC(O)CN2C(=O)C(NC(=O)c2ccc(COc3c(-c4c(C)c(F)cc5[nH]ncc45)c(C4CC4)cc4c(N5CC6CC5CN6)nc(OC5CCOCC5)nc34)cc2)C(C)C)cc1 (centres unmarked) | von Hippel-Lindau disease tumor suppressor, with Elongin B/C (VHL, Homo sapiens, UniProt P40337) | SPR, single-cycle | immobilized VCB complex | binary, geometric mean | kon | 140000 M⁻¹ s⁻¹
CCN1CCN(Cc2ccc(COc3c(-c4c(C)c(F)cc5[nH]ncc45)c(C4CC4)cc4c(N5C[C@@H]6C[C@H]5CN6)nc(OC5CCOCC5)nc34)cc2)C(=O)C1 | A-375 (KRAS wild type) | in-cell ELISA, item: phospho-ERK1/2 | – | 3 µM, 2 h | ERK1/2 phosphorylation | 107% and 125% and 118% and 105%

Repeated from above (set 5):
target | test | scale | remaining binding [%]
TNK1 (Homo sapiens, UniProt Q13470) | kinase binding, KINOMEscan | reference: DMSO control | 100
DYRK1A (Homo sapiens, UniProt Q13627) | kinase binding, KINOMEscan | reference: DMSO control | 64
PDPK1 (Homo sapiens, UniProt O15530) | kinase binding, KINOMEscan | reference: DMSO control | 77
CAMK2G (Homo sapiens, UniProt Q13555) | binding, competition with immobilised ligand | – | 87
CSNK1A1L (Homo sapiens, UniProt Q8N752) | kinase binding, KINOMEscan | reference: DMSO control | 74
MAP4K5 (Homo sapiens, UniProt Q9Y4K4) | binding, competition with immobilised ligand | – | 72
Tyrosine-protein kinase ABL1, phosphorylated (ABL1, Homo sapiens, UniProt P00519, M351T) | binding, competition with immobilised ligand | – | 73
Ribosomal protein S6 kinase alpha-1, C-terminal kinase domain (RPS6KA1, Homo sapiens, UniProt Q15418) | binding, competition with immobilised ligand | – | 100
ACVRL1 (Homo sapiens, UniProt P37023) | binding, competition with immobilised ligand | – | 94
KIT (Homo sapiens, UniProt P10721, V559D/V654A) | kinase binding, KINOMEscan | reference: DMSO control | 89
PLK2 (Homo sapiens, UniProt Q9NYY3) | kinase binding, KINOMEscan | reference: DMSO control | 60
